Experimental data pooled from the literature.
Each numbered part is a random draw from the data of one study; scales do not carry over between parts. Changes are numbered by the printed parent chain.

Series 1
Target: Interferon regulatory factor 5, full length, phosphomimetic (IRF5, Homo sapiens, UniProt Q13568-2, residues 1-514, S451D/S453D/S456D/S462D)
Technique: protein-binding microarray
Molecule type: double-stranded DNA, one strand shown
Sample: in vitro
Concentration: 940 nM top
Setting: 60-bp whole probe
Together with: salmon DNA 0.4 mg/ml
Reference: random background probes
Reading: higher = stronger binding
Shared flanks, not repeated: GCCTAGCAC … GTCTTGATTCGCTTGACGCTGCTG
`GACGGTCTGGACTTTCGGGACGTGCTA` — result for “fitted relative affinity”: 0.326 z-score.
For `CACTCTGTCCCTCTGTGACAGTGCTAG`, “fitted relative affinity” read 0.0996 z-score.
`TTAGAACTGGGGACTGTATTAGTGCTA`: “fitted relative affinity” 0.0465 z-score.
For `GACGGTTTCGACCATCGGGACGTGCTA`, “fitted relative affinity” read 7.07 z-score.
For `GTCGGTCTCCTTTTCCTGACGTGCTAG`, “fitted relative affinity” read 1.89 z-score.
For `TTAGAAATCAGACTGGATTAGTGCTAG`, “fitted relative affinity” read -0.478 z-score.
Under “fitted relative affinity”, `TCTTTTTGCTTTCTTTTATGGTGCTAG` is recorded as 2.64 z-score.
Under “fitted relative affinity”, `TTAGATATCGAGTATCGATTAGTGCTA` is recorded as 3.72 z-score.
`CACGAACTGGGGACTGGAGACGTGCTA` — result for “fitted relative affinity”: 0.0144 z-score.
For `TTAAGTATCGACACTGGGTTAGTGCTA`, “fitted relative affinity” read 4.93 z-score.
`GGTCCTCTAGGAATGTAACTGTGCTAG`: “fitted relative affinity” -0.231 z-score.
For `GGAGTTTCCACCCTTCTCTCGTGCTAG`, “fitted relative affinity” read 1.68 z-score.
`GACGGACTGCTTCTCCTGAGGTGCTAG`: “fitted relative affinity” -0.0918 z-score.
`TCATTTATCAAATGTGGGACTGTGCTA`: “fitted relative affinity” -0.168 z-score.
`GACGATTTCGGAACTGGAGACGTGCTA` — result for “fitted relative affinity”: 0.304 z-score.
`AACGATATCGGGTTTCGAGACGTGCTA`: “fitted relative affinity” 2.02 z-score.
For `ATGTGTTTACATATGTTTTTGTGCTAG`, “fitted relative affinity” read -0.0369 z-score.
`TTAGGAGTGGGACTGGGTTAGTGCTAG`: “fitted relative affinity” -0.0335 z-score.
Under “fitted relative affinity”, `GAGGGACTGCTACTGCTGACGTGCTAG` is recorded as -0.604 z-score.
For `GTGGGAAACCGGAAAGGCAAAGTGCTA`, “fitted relative affinity” read -0.509 z-score.
Under “fitted relative affinity”, `GACGGACTGGGGTAGCGGGACGTGCTA` is recorded as -0.526 z-score.
`TTAGGTTTCGAGTATCGGTTAGTGCTA`: “fitted relative affinity” 8.41 z-score.
For `GACGGACTGGACTATTGGGACGTGCTA`, “fitted relative affinity” read -0.481 z-score.
Under “fitted relative affinity”, `GACGGTTTCCCTTTCCTGACGTGCTAG` is recorded as 2.66 z-score.
Under “fitted relative affinity”, `TTATGTATCGGACTGGGTTAGTGCTAG` is recorded as 1.11 z-score.

Series 2
Target: RNA binding protein fox-1 homolog 2, RRM domain, GST-SBP tag (RBFOX2, Homo sapiens, UniProt O43251-10, residues 100-194)
Technique: RNA Bind-n-Seq
Molecule type: RNA
Sample: in vitro
Concentration: 365 nM
Setting: natural RNA segment, single round, ends assumed
Reference: no-protein control
Reading: higher = stronger binding
Construct (chain): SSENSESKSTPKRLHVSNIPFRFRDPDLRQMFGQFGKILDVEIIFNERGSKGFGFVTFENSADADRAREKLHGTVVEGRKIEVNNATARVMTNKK
For `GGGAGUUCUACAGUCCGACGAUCCUGCUUCGGGGCCAUGCAGCCCUCCUGCCAGCCCCCUGCCCUUUUCUUGCCCUGUCUCUGAACCUUCAGAACAUUGAUCCUUGCCGCAGCCCCACUAGCCAAGAGAAACAUGGAAUUCUCGGGUGCCAA`, “RBNS enrichment (R)” read 0.469.
`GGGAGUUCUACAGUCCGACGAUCACAUGGAGUGGUUCAGCGCGGCCUGGGUGCCUGGCGGACAGAACUUCAGAGACCACGCAGCCUUCCUUCGAAGACGCACCUGCCCAGCCCAGCCCAGGGGUGCCGUGGAGUGGAAUUCUCGGGUGCCAA` — result for “RBNS enrichment (R)”: 0.359.
Under “RBNS enrichment (R)”, `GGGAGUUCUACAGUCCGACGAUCAAGACUGAUUGCACCUGGGACCCAGGCCCUUUCUUUGGGAUCCAGUCCCAGCCUUCAUCCAUGUGAUUAAGAUCCAGGCCGCUGAAGUUCCCCAGGAAAUGAUCUUCCACUGGAAUUCUCGGGUGCCAA` is recorded as 0.34.
Under “RBNS enrichment (R)”, `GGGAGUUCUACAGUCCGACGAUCUUAAGUAAUCAUUUAUUAAGACAGAAUUUUGUAUAAACUAUUUAUUGUGCUCUCUGUGGAACUGAAGUUUGAUUUAUUUUUGUACUACACGGCAUGGGUUUGUUGACACUUGGAAUUCUCGGGUGCCAA` is recorded as 1.26.
Under “RBNS enrichment (R)”, `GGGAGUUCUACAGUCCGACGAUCCGAGCUUGUUUUAAAGCAGAGACUGAAUAGAAAGUUGUAUGUUUUAGCAUAAACUAAUUCCUUUUGAGUUUGUAAAUCAUUUGUACCCAGAAUGUAUUAUAAUAUAUUGCUGGAAUUCUCGGGUGCCAA` is recorded as 2.01.
Under “RBNS enrichment (R)”, `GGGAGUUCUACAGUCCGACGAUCGCGCCACUCACCCUCAGUGUCCUUCCGUGAGGCUUCUCGCCAAAGAUGAUAGAGGGUGAAUGAUCUCAGUGCAUAUGUCAUACUGCCUUGUGGGUGGACUCUAAGUUGGCUGGAAUUCUCGGGUGCCAA` is recorded as 0.284.
`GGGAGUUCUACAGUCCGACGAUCUAUUCAUGUCUCUACCCACUAUGCACAGAUUAAACUUCACCUACAAACUCCUUAAUAUGAUCUGUGGAGAAUGUACACAGUUUAAACACAUCAAUAAAUACUUUAACUUCUGGAAUUCUCGGGUGCCAA` — result for “RBNS enrichment (R)”: 2.02.
For `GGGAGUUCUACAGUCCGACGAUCCGGCACCUUCCUAGGCCUGGGCACAGUCACUGGCUCUGUUGCCAUCUACAUAGCUUUCUCUCUCCAGUGCCUCUACUACGUGAGGGAGGCCCAUGGCAUUGUGGUGACGGUGGAAUUCUCGGGUGCCAA`, “RBNS enrichment (R)” read 0.286.
For `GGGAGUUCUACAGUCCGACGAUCUUUGUUUACUAAGGGUCUGCUUAGGAAGAAUUCAGGGAGGAACUGUGCUGUGGUGUGACCAAUGAAAAGCUGCAGUCCAGUUUUGUCCCUGGAACCUGUCCUGCACUCUUUGGAAUUCUCGGGUGCCAA`, “RBNS enrichment (R)” read 0.36.
For `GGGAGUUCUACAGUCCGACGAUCUUCUGGAAAUGAUUAUUAAUCCACAAAGAAGAACUCUGUAAGCUUUUUCUUGAAUUGUAGCCAGUGAGAAAAGCAGAUAGACUGAAGAAUAUGAAGGAUAGCUGAGCUGUUGGAAUUCUCGGGUGCCAA`, “RBNS enrichment (R)” read 0.591.
For `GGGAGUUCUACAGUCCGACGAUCUUUAAAAAUUUGUCCUUAAAUGAAUAAAUAAAAUAAAAGUUGGUCCUGUGAGAGGAUAAUGAAGAUGCGACCUCGCUCACCUUCCCUUUAUUCUGCCGCAAAGUCCCACCUGGAAUUCUCGGGUGCCAA`, “RBNS enrichment (R)” read 0.247.
`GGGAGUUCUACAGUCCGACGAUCCAGGACCUUCUUUCAGAACGAGGGUAGUAUUACCCUAUCUGUUGGAAAGGAUGGUUUACAUAGCAGUUCCAGCCUCCUUUUGCUUUGGCCAGUUGGCCUUCUCACUUUGAUGGAAUUCUCGGGUGCCAA` — result for “RBNS enrichment (R)”: 0.291.

Series 3
Target: CCNA1, cyclin fold, Cln2 fusion (human)
Technique: yeast growth competition, sequencing
Sample: yeast
Setting: weak parent motif
Reference: not given
Reading: higher = stronger binding
Starting sequence: CDKN1A docking peptide (human); SKACRRLFGPVDS; partner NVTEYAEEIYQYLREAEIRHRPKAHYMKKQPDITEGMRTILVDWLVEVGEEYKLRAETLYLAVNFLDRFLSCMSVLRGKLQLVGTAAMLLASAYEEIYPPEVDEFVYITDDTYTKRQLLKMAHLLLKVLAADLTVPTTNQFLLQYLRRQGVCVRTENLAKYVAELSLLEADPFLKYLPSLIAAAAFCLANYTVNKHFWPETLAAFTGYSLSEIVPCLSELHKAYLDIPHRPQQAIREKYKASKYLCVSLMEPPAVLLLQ
Under “normalised enrichment score”, `R6D` is recorded as 0.106.
`G9H`: “normalised enrichment score” 0.663.
For `V11I`, “normalised enrichment score” read 0.523.
`L7T`: “normalised enrichment score” 0.64.
`F8C`: “normalised enrichment score” 0.256.
`R6W`: “normalised enrichment score” -0.286.
For `P10L`, “normalised enrichment score” read -0.101.
Under “normalised enrichment score”, `D12N` is recorded as 0.519.
`V11T` — result for “normalised enrichment score”: 1.03.
`R5A` — result for “normalised enrichment score”: -0.0246.
`R6C` — result for “normalised enrichment score”: 0.401.
Under “normalised enrichment score”, `R5L` is recorded as 0.0031.
`L7R` — result for “normalised enrichment score”: 0.175.
For `K2G`, “normalised enrichment score” read 0.481.
`R6G` — result for “normalised enrichment score”: -0.127.
`G9R`: “normalised enrichment score” 0.0901.

Series 4
Target: Histone acetyltransferase KAT6A, both winged helices, GST fusion (KAT6A, Homo sapiens, UniProt Q92794, residues 1-181)
Technique: protein binding microarray
Molecule type: double-stranded DNA, one strand shown
Sample: in vitro
Concentration: not given
Setting: 8-mer, flanks averaged, mean of 2 arrays, mostly near background
Reference: not given
Reading: higher = stronger binding
Target sequence (chain): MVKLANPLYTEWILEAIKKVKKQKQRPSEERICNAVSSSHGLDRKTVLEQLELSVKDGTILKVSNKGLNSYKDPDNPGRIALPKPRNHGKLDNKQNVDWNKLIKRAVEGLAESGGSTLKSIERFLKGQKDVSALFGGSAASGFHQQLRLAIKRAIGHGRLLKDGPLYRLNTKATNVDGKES
The E-score of `GTGTGATA` is reported as 0.0414.
The E-score of `ATCAAAAG` is reported as 0.0445.
`ATCACTGC` gave an E-score of 0.00648.
The E-score of `CGACTGAC` is reported as 0.0485.
For `AGTTCGAG`, the E-score was -0.0642.
With `ATAGGTGC` the E-score was -0.141.
For `CTCACTCA`, the E-score was -0.185.
`TGCATACA` has an E-score of -0.0708.
The E-score of `AGACCCCG` is reported as 0.167.
`ATCTTTAA` gave an E-score of 0.0554.
The E-score of `CGCACCAA` is reported as 0.0778.
For `AATCAACT`, the E-score was -0.0424.
`AAGCTCTC` gave an E-score of -0.255.
`CGCCACGA` has an E-score of 0.155.
`ATGCCGTG` has an E-score of 0.214.
`ACTCCACC` gave an E-score of -0.211.
With `AATTTACG` the E-score was 0.0672.
With `TCGAACAA` the E-score was -0.0714.
The E-score of `ACACGCAG` is reported as 0.0584.
With `GCATTCGA` the E-score was 0.0426.
`GGTAGCCA` has an E-score of -0.0486.
With `CACCATCA` the E-score was -0.113.
With `GTGGGGCA` the E-score was -0.13.
The E-score of `CCTCCCCC` is reported as -0.0903.
`CGGGCCCC` gave an E-score of 0.211.

Series 5
Target: Sal-like protein 4, full length isoform B (SALL4, Homo sapiens, UniProt Q9UJQ4-2, residues 1-616)
Technique: universal PBM
Molecule type: double-stranded DNA, one strand shown
Sample: in vitro
Concentration: not given
Setting: 8-mer, flanks averaged, mean of replicates
Reading: higher = stronger binding
The E-score of `CAGGAATG` is reported as -0.0241.
The E-score of `CATTGTGC` is reported as 0.11.
The E-score of `ACTCGTTC` is reported as 0.0245.
With `CCCATTAA` the E-score was 0.129.
`CAAAGCCC` gave an E-score of -0.256.
With `GAGTGGGA` the E-score was -0.0805.
`CCCAACAC` has an E-score of -0.109.
`CTCAGAGC` gave an E-score of -0.33.
`GTAAGAAA` has an E-score of 0.0294.
The E-score of `CTCAGTAC` is reported as -0.0944.
The E-score of `GAAATCTA` is reported as 0.209.
The E-score of `ACGGGAGA` is reported as -0.0669.
The E-score of `TACCGGGA` is reported as -0.0761.
For `ATCACAAG`, the E-score was 0.108.
With `GGCGTTAC` the E-score was -0.132.
For `ATTGTTTC`, the E-score was 0.175.
The E-score of `CAACAACG` is reported as 0.012.
